Experimental data gathered from unrelated publications.
Lines come from different studies, so protocols differ. Values joined by “and” are separate records of one study, mostly repeats; a detail may differ. Numbers after ± are the reported error.
OPRM1: Mu-type opioid receptor (OPRM1, Homo sapiens, UniProt P35372)
UniProt P35372, sequence (whole entry, looked up): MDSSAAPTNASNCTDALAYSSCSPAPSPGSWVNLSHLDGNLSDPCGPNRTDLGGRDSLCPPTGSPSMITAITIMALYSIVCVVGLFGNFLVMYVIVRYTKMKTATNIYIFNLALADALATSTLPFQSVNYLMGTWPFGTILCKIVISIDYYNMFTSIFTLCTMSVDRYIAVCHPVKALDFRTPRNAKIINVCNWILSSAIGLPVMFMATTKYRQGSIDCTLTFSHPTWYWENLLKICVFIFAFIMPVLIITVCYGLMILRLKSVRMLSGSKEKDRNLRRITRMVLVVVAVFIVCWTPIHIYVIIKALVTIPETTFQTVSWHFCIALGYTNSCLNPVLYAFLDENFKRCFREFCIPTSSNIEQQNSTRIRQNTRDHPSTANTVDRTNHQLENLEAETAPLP

Structure (SMILES) | target | assay | test system | conditions | endpoint | result
CC(C)[C@H]1CC[C@H](N2CC[C@@](C)(c3cccc(O)c3)[C@@H](C)C2)CC1 | OPRM1 | ligand displacement, radioligand | – | – | Ki | 6 nM and 6.01 nM
CC(C)C[C@H](NC(=O)[C@H](Cc1ccccc1)NC(=O)CNC(=O)CN(Cc1ccccc1[N+](=O)[O-])C(=O)[C@@H](N)Cc1ccc(O)cc1)C(=O)O | OPRM1 | reporter gene (SEAP), agonist | HEK-293T cells | caged form, no photolysis | EC50 | 5670 nM
C[C@@H](O)[C@H](NC(=O)[C@H]1NC(=O)[C@H]([C@@H](C)O)NC(=O)[C@H](CCCN)NC(=O)[C@@H](Cc2c[nH]c3ccccc23)NC(=O)[C@H](Cc2ccc(O)cc2)NC(=O)[C@@H](NC(=O)[C@H](N)Cc2ccccc2)CSSC1(C)C)C(N)=O | OPRM1 | – | – | – | Ki | 5.46 ± 0.7 nM
CC[C@H](C)[C@H](NC(=O)[C@@H](N)Cc1ccc(O)cc1)C(=O)N[C@@H](Cc1ccccc1)C(=O)N[C@@H](CC(N)=O)C(=O)N[C@@H](CC(C)C)C(=O)O | OPRM1 | binding, radioligand displacement | PC-3 | added: [3H]DAMGO | IC50 | 0.043 ± 9.7e-14 nM
Cc1cc(O)cc(C)c1C[C@H](N)C(=O)N1Cc2ccccc2C[C@H]1C(=O)NCC(=O)NCc1ccccc1 | OPRM1 | GTPγS binding, agonist, radiometric | – | cell membranes | EC50 | 19 nM
CN(C)[C@H](CNC(=O)/C=C/c1cccc2ccccc12)Cc1ccc(O)cc1 | Mu-type opioid receptor, with Gz (OPRM1, Homo sapiens, UniProt P35372) | receptor activation, agonist | – | – | EC50 | 3.8 nM
CC(C)C[C@H](NC(=O)[C@H](Cc1ccccc1)NC(=O)CN(Cc1ccccc1[N+](=O)[O-])C(=O)CNC(=O)[C@@H](N)Cc1ccc(O)cc1)C(=O)O | OPRM1 | reporter gene (SEAP), agonist | HEK-293T cells | caged form, no photolysis | EC50 | 28900 nM
Cc1cc(O)cc(C)c1C[C@H](N)C(=O)N[C@@H]1CSSC[C@@H](NC(=O)[C@@H](N)Cc2c(C)cc(O)cc2C)C(=O)NCC(=O)N[C@@H](Cc2ccccc2)C(=O)NNC(=O)[C@H](Cc2ccccc2)NC(=O)CNC1=O | OPRM1 | GTPγS binding, agonist, radiometric | – | cell membranes | EC50 | 7.6 nM

A few entries again:
Structure (SMILES) | target | assay | test system | conditions | endpoint | result
CN(C)[C@H](CNC(=O)/C=C/c1cccc2ccccc12)Cc1ccc(O)cc1 | Mu-type opioid receptor, with Gz (OPRM1, Homo sapiens, UniProt P35372) | receptor activation, agonist | – | – | EC50 | 3.8 nM
